Earlier results, collected from citations in different studies.
Compare with care: the assays were run in different laboratories. ± marks the error that the study gave.
Cell line: MCF7

`CN(C)c1ccc(C2CC(c3c(O)c4ccccc4oc3=O)=NN2c2nc(-c3ccccc3)c(/N=N/c3ccc(Cl)cc3)s2)cc1` (centres unmarked) gave an IC50 of 5.41 µM (cell growth).
`COc1ccc(-c2ccc(NC(=O)Nc3ccc(Cl)c(C(F)(F)F)c3)c(C)n2)cc1` has an IC50 of 0.22 µM (48 h).
`CCCCSc1nnc(-c2ccc(N)cc2)o1` gave an IC50 of 2.45 ± 1.03 mg/L (cytotoxicity).
The IC50 of `Cc1ccc2nc(SCc3cn(-c4cccc(C(=O)O)c4)nn3)n(Cc3ccccc3)c(=O)c2c1` is reported as 4.04 µM.
With `COc1ccc(-n2cc(Cn3c(/C=C4\SC(=O)NC4=O)nc4ccccc43)nn2)cc1` the IC50 was 2.9 µM (cytotoxicity).
The IC50 of `COc1cc(Nc2nnc(-c3cc4ccccc4[nH]3)s2)cc(OC)c1OC` is reported as 0.91 µM (cytotoxicity).
The IC50 of `Oc1cccc(-c2cccc(O)n2)n1.[Cl-].[Cl-].[Ru+2].c1cnc2c(c1)ccc1cccnc12.c1cnc2c(c1)ccc1cccnc12` is reported as 490 µM (cell viability; dark).
The IC50 of `COc1c(-c2cc(-c3ccc(C)o3)c(C#N)c(N)n2)c(O)c(Br)c2occc12` is reported as 1.18 µM.
With `Cc1ccc(S(=O)(=O)Nc2ccc(-c3ccnc(Nc4ccc(S(=O)(=O)Nc5ncccn5)cc4)c3C#N)cc2)cc1` the IC50 was 18.3 µM (cell proliferation).
`COc1ccc(NC(=O)Nc2ccc(-c3ccc(OC)c(OC)c3)nc2C)cc1` has an IC50 of 1.88 µM (48 h).
The IC50 of `NS(=O)(=O)c1ccc(/N=C2/NC(=O)/C(=C3/C(=O)Nc4ccc(Cl)cc43)S2)cc1` is reported as 3.96 ± 0.21 µM (cell growth).
The IC50 of `Cc1cc(C)cc(NC(=O)c2c(NC(=O)Nc3ccc(Cl)cc3)c(C#N)c3n2CCC3)c1` is reported as 1.12 ± 0.1 µM (cell growth).
The IC50 of `O=C(c1ccc(Br)cc1)[C@H]1[C@H](c2cn(-c3ccccc3)nc2-c2ccccc2)C2CC3CCCCC3N2[C@]12C(=O)Nc1ccc(Cl)cc12` (some centres unmarked) is reported as 0.189 ± 0.01 µM (cell growth).
`COC1C(C#N)=C(/N=C/c2cccc(Br)c2)Oc2nc(Nc3ccc(S(N)(=O)=O)cc3)sc21` (centres unmarked) gave an IC50 of 9.27 µM (cell viability, MTT).
`N#Cc1ccc(-c2csc(N3N=C(c4ccc(N5CCOCC5)cc4)CC3c3ccc(Cl)cc3)n2)cc1` (centres unmarked) gave an IC50 of 8.05 µM (cell growth, MTT).
`Oc1cccc(-c2cccc(O)n2)n1.[Cl-].[Cl-].[Ru+2].c1cnc2c(c1)c1c(c3cccnc32)OCCO1.c1cnc2c(c1)c1c(c3cccnc32)OCCO1` has an IC50 of 490 µM (cell viability; dark).
With `C=CCSc1nnc(-c2cc3ccccc3[nH]2)n1/N=C/c1c[nH]c2ccccc12` the IC50 was 1.18 µM (cytotoxicity).

Excerpt of the above:
The IC50 of `Cc1ccc2nc(SCc3cn(-c4cccc(C(=O)O)c4)nn3)n(Cc3ccccc3)c(=O)c2c1` is reported as 4.04 µM.
